Measured values gathered from unrelated publications.
Numbered parts are unrelated; each lists some results of a single study. Positions count from the first letter of the parent shown.

Sample 1
Target: CCNE2, cyclin fold, Cln2 fusion (human)
Method: yeast growth competition, sequencing
Medium: yeast
Setting: strong parent motif
Baseline: not given
Reading: higher = stronger binding
Starting sequence: CDC25A docking peptide (human); PPHRRRLLFACSP; partner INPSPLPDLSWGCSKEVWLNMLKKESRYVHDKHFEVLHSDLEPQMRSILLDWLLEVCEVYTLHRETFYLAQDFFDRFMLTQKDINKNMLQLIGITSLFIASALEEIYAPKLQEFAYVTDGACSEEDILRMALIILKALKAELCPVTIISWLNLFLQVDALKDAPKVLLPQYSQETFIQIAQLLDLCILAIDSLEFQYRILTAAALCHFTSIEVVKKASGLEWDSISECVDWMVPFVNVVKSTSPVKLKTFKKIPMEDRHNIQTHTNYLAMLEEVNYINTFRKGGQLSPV
Variant | normalised enrichment score
L7H | 0.458
A10Q | 2.04
F9M | 1.17

Sample 2
Target: Sal-like protein 4, full length isoform A (SALL4, Homo sapiens, UniProt Q9UJQ4, residues 1-1053)
Sequence of UniProt Q9UJQ4 (whole entry, looked up): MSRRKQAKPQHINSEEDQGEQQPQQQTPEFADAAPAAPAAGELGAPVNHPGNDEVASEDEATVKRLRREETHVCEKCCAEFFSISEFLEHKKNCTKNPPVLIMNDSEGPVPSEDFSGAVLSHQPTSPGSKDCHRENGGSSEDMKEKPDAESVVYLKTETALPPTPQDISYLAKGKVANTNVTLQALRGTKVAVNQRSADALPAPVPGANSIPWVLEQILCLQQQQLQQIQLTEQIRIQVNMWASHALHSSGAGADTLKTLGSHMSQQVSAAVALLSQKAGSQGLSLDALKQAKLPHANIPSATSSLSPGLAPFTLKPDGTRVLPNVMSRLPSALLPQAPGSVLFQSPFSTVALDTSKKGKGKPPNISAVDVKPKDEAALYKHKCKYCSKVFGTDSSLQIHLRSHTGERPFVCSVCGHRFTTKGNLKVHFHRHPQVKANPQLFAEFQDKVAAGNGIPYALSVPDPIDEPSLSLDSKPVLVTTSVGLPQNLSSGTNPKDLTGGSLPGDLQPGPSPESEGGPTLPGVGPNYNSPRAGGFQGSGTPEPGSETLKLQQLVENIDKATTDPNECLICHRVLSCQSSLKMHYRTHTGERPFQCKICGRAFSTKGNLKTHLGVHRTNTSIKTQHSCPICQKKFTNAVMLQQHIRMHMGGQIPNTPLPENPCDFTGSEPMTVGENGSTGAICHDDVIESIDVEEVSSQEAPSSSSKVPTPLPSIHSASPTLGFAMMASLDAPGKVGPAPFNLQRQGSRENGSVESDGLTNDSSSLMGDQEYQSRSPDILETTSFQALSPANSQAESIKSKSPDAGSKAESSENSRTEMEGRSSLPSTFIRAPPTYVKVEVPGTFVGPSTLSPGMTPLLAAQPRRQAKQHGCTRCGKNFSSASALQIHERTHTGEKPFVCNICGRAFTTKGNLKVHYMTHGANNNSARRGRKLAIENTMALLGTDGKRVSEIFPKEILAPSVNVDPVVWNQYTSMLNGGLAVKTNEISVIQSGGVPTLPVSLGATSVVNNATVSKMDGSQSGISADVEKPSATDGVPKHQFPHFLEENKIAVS
Method: universal PBM
Form: double-stranded DNA, one strand shown
Medium: in vitro
Tested at: 600 nM
Setting: 8-mer, flanks averaged, mean of replicates
Reading: higher = stronger binding
Sequence | E-score
GGTCTCGA | -0.127
ACCTCGCA | -0.0873
AGGTGCAG | -0.23
GTGAGGTA | -0.0737

Sample 3
Substance: PhoQ, residues 284 288 289 292 302 303 NLSRDF
Method: Sort-seq
Measured: YFP reporter
Medium: E. coli
Setting: PhoQ-PhoP variant library
Added: 10 µM Mg2+
Baseline: high Mg2+ state
Reading: higher = stronger signaling
target | fold induction
PhoP, residues 12 14 15 18 19 QYCSL (Escherichia coli, UniProt P23836) | 9.49
PhoP, residues 12 14 15 18 19 STHWV (Escherichia coli, UniProt P23836) | 6.71
PhoP, residues 12 14 15 18 19 SHWTV (Escherichia coli, UniProt P23836) | 10.6

Sample 4
Target: Histone acetyltransferase KAT6A, winged helix 2, GST fusion (KAT6A, Homo sapiens, UniProt Q92794, residues 85-181)
Method: protein binding microarray
Form: double-stranded DNA, one strand shown
Medium: in vitro
Tested at: not given
Setting: 8-mer, flanks averaged, mean of 2 arrays, mostly near background
Baseline: not given
Reading: higher = stronger binding
Residues (chain): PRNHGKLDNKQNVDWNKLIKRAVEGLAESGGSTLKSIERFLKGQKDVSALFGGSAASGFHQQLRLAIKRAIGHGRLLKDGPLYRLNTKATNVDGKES
Sequence | E-score
GCGATAGC | 0.163
AGGTCACT | 0.052
TAACGCGA | -0.0263
CGCTCGCC | 0.11
CGCCCCGA | 0.175

For quick reference, copied from above (sample 4):
Sequence | E-score
CGCTCGCC | 0.11
